Results pooled from the literature.
A part holds a random share of what one study measured.

Sample 1
Target: Prothrombin, mature alpha-thrombin (F2, Homo sapiens, UniProt P00734)
Technique: aptamer microarray, sandwich
Molecule type: DNA with 2'F-ANA
Matrix: in vitro
Concentration: 200 nM
Setting: whole 15-mer aptamer, many near background
Together with: Cy3 exosite-II aptamer, 400 nM
Reading: higher = stronger binding
Strand: GGTTGGTGTGGTTGG
Modification | mean fluorescence intensity
2'F-ANA at 1 2 5 6 7 8 9 11 14 | 76.8 a.u.
2'F-ANA at 3 4 7 8 9 10 11 12 14 15 | 212 a.u.
2'F-ANA at 5 6 8 | 83.5 a.u.
2'F-ANA at 2 5 11 12 14 15 | 43.8 a.u.
2'F-ANA at 1 2 4 5 8 12 13 | 78.6 a.u.
2'F-ANA at 1 2 3 6 11 12 13 14 15 | 153 a.u.
2'F-ANA at 3 4 5 6 8 9 | 123 a.u.
2'F-ANA at 3 4 6 9 10 11 12 14 | 185 a.u.
2'F-ANA at 1 2 3 6 10 12 | 83.8 a.u.
2'F-ANA at 4 5 6 7 8 9 10 12 13 14 15 | 49.1 a.u.
2'F-ANA at 1 2 6 7 10 12 13 15 | 65.4 a.u.
2'F-ANA at 3 6 10 11 12 13 15 | 490 a.u.
2'F-ANA at 2 3 4 7 8 11 13 | 525 a.u.
2'F-ANA at 4 5 8 9 10 11 | 44.2 a.u.
2'F-ANA at 1 3 4 5 9 12 13 | 72.8 a.u.
2'F-ANA at 1 2 6 8 10 11 12 13 15 | 101 a.u.
2'F-ANA at 1 4 5 8 9 10 12 13 15 | 79.5 a.u.
2'F-ANA at 1 3 5 7 8 9 11 13 14 | 47.7 a.u.
2'F-ANA at 2 4 5 6 7 10 11 12 14 15 | 47.7 a.u.
2'F-ANA at 2 3 4 6 8 9 10 11 13 | 158 a.u.
2'F-ANA at 1 6 7 9 11 14 | 61.9 a.u.
2'F-ANA at 2 6 7 9 11 12 15 | 466 a.u.
2'F-ANA at 3 5 10 13 15 | 51.2 a.u.
2'F-ANA at 3 4 8 10 | 295 a.u.
2'F-ANA at 4 5 7 10 11 14 15 | 44.9 a.u.

Sample 2
Molecule: GAPLKKLFTSTGL
Organism: Saccharomyces cerevisiae
Effect on: binding
Technique: competitive growth deep sequencing
Molecule type: peptide
Concentration: concentration not given
Reading: direction not given
system | setting | growth enrichment score
cyclin E1-Cln2 fusion strain | peptide library 1 | 0.482
cyclin E1-Cln2 fusion strain | combined peptide libraries | 1.07
cyclin D3-Cln2 fusion strain | peptide library 1 | 0.134

Sample 3
Target: Hepatocyte nuclear factor 3-alpha (Foxa1, Mus musculus, UniProt P35582, residues 1-468, full length assumed)
Technique: EMSA with sequencing
Molecule type: double-stranded DNA, one strand shown
Matrix: in vitro
Concentration: 10 and 20 nM
Setting: whole designed probe, mean of two concentrations, ends assumed
Relative to: negative control set to 0
Reading: higher = stronger binding
Residues (chain): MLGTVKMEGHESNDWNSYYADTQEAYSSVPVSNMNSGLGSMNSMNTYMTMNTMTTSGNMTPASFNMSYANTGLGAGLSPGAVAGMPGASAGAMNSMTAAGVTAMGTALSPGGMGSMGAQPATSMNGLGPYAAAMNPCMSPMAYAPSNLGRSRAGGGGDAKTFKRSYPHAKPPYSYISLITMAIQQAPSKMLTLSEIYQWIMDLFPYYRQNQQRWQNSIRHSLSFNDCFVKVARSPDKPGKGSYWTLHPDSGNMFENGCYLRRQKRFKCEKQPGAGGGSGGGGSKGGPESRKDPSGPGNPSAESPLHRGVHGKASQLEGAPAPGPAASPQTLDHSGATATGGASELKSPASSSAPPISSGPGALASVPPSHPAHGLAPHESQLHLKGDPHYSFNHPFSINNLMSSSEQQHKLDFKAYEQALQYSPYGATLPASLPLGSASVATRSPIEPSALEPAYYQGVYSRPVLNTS
Strand | normalised bound fraction
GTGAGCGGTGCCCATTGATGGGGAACCTTCCACCCGCTCCTTCTCCCTGGATTAAAACACCACGAATTTTCTGCTCTTTGCTTTTCTTGAATAAGTTACCAAAAAAGAGCAGAACTAAGTCAACACCAAACTGCCCTTTGGATAAACAAGATGGAGCAGATTTATTTACCTTGGAACATGATTTTGAATTCAAGCCATGAAGTACACTGGAGGAATGCCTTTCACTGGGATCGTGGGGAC | 0.355 ratio
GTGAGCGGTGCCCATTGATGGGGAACAGGTGAATTGGCTGCTTCCATCCTGGCTTGGAACTTCAGACATAGAAGCCTTGGGACTTTCTCAGGACTTTCTCCAGATCTGTCACATGCTCAGCAAACAAGCATCTCCTGACTCATGCTGACCTTAGCCAGGGATGTTGGTGAAACTGTGTGTTGGTCTAGGTACCTAGCCCATGCTAGGTGCTCATCGAATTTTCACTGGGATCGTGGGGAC | 0.108 ratio
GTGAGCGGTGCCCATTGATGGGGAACCTTCAAAGTAGCTCCCATATGGACTGAATATAGGATACGAGCCTCTGCCTAGCCTTCAGTCCTTTTTGTTTGGTTTAGGTGTTGGTTGTCTTTGTAATCTCTGGAAGCTGCTGAGTCATCTCCCTCGGCTTTTTCCATCACACTTTACCCCACATACATTCATACACACTTGGCTCAAGCTTTTCGGTTCTTTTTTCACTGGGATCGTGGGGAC | 0.184 ratio
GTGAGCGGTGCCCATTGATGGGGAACCACTCGGCTCCCCAGAGGTCAGCGCACCCCAAGCCCAGAGGCCGGCTGGCCTCGGCACGTCTCACTCCACTATCTTCCCTCCTCCCTGAACTCTGTTTACACAAGGCTGGTCTTGGCTCTGAGGCTGCTAGATTTTAAATGCAATCTCACTGGTGACTCACTGGTGCATCGTCATTTGGCTTTGCCTGGAATTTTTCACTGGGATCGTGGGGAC | 0.484 ratio
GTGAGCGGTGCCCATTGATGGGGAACCTTTGAGTTTTCAGAGTGACTCAACACAGTTGAACTATGAATCACTTCAGTATTGTCTGTGCACACCAAAGCCCTGGCATATGGAGCAGGAGAGTACTCTAGAAAGCTCTTTCCCAGCCCTGAGCTCTCAGAGCTTTCCCTAGGTGTGTGATGAGGCCACTTTCCCCCATCACTTCCCCAAGTCTAGATGTCCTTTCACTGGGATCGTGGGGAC | -0.0402 ratio
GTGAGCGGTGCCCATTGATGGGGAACATCTTCCCCCTCTTCCTTGCCCCACCAGCTCACCTTCCCGGGTTATTTGCACAAAGGAAAATAAATAAAGCCGGCATTCGTTAACGCAGTTCTGGCGCAAACTGCTGTTTGCTCTGCATCTAACATGGTCCTTACGCGACGCCAGGCTCCGGGAGAGCAAAGCACCGTGTCAGGCGCATGATCCGGGGTGGCCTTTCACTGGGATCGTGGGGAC | 0.384 ratio
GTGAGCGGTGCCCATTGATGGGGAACATCTTCCCCCTCTTCCTTGCCCCACCAGCTCACCTTCCCGGGTTATTTGCAGATAGGAAAATAAATAAAGCCGGCATTCGTTAACCCTCTTCTGGCGCAAACTGCTGTTTGCTCTGCATCTAACATGGTCCTTACGCGAGGCGTGGCTCCGGGAGAGCAAAGCACCGTGTCAGGCGCATGATCCGGGCTCGCCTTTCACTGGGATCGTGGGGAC | 0.353 ratio
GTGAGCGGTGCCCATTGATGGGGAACGAAGGAAATAATGGAGCCAACCATGCATATAACCTCAGGGAGAACATTCTAGGTAGAGGGAACAGCAAGTGCAAAGGCCCTGAAGTGGGGGTTTGTTTACCTTCTGCACACAGTTGCACAATGGCCAGTACAATTGGAATGGATGGGAAATGTAAAAGAGAGAAGTTGAAAAGGCCAGGTGCAGTGGCTCATGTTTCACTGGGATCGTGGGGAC | 0.411 ratio

Sample 4
Target: Histone acetyltransferase KAT6A, both winged helices, GST fusion (KAT6A, Homo sapiens, UniProt Q92794, residues 1-181)
Technique: protein binding microarray
Molecule type: double-stranded DNA, one strand shown
Matrix: in vitro
Concentration: not given
Setting: 8-mer, flanks averaged, mean of 2 arrays, mostly near background
Relative to: not given
Reading: higher = stronger binding
Residues (chain): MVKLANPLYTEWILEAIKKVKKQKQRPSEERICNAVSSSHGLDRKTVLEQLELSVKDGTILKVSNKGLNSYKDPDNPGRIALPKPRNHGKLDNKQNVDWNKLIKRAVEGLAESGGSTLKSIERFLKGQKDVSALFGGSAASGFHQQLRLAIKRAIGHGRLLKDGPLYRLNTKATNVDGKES
Strand | E-score
ATGTCCAG | 0.00508
GACAGGGC | 0.0351
ATTTTAAC | -0.17
CGTCGGCC | 0.22
CACATGCC | 0.0409
GAATCGCA | -0.0316
GAGGATCA | -0.118
GCGTAACA | 0.0776
CGTTGTAC | 0.124
AGGGGTTG | -0.164
AATTAGCG | 0.188
CAGCTTGC | 0.0626
AATCTGTC | -0.103
AGTCTGTG | -0.116
GCCCGCAA | 0.0994
CGCAGGCG | 0.218

Sample 5
Target: UBE2Z UBC core domain (UniProt Q9H832)
Technique: yeast two-hybrid
Matrix: yeast
Setting: mostly zero background
Relative to: not given
Reading: higher = stronger interaction
B1: RNF115 RING domain (UniProt Q9Y4L5); chain TQEQVDMGLECPVCKEDYTVEEEVRQLPCNHFFHSSCIVPWLELHDTCPVCRKSLNGEDSTR
B2: UBE4B RING domain (UniProt O95155); chain KNARAEIDYSDAPDEFRDPLMDTLMTDPVRLPSGTIMDRSIILRHLLNSPTDPFNRQTLTESMLEPVPELKEQIQAWMREKQNSDH
B3: RFPL3 RING domain (UniProt O75679); chain MAALFQEASSCPVCSDYLEKPMSLECGCTVCLKCINSLQKEPHGEDLLCCCCSMVSQRNKIRP
B4: SHPRH RING domain (UniProt Q149N8); chain KTSGGVNPEPCPICARQLGKQWAVLTCGHCFCNECISIIIEQYSVGSHRSSIKCAICRQTTSHKEISY
B5: RNF7 RING domain (UniProt Q9UBF6); chain AICRVQVMDACLRCQAENKQEDCVVVWGECNHSFHNCCMSLWVKQNNRCPLCQQDWVVQRIGK
B6: ARIH1 RING domain (UniProt Q9Y4X5); chain NTRSSAQDMPCQICYLNYPNSYFTGLECGHKFCMQCWSEYLTTKIMEEGMGQTISCPAHGCDILVDDNTVM
B7: TRIM28 RING domain (UniProt Q13263); chain GAEALELLEHCGVCRERLRPEREPRLLPCLHSACSACLGPAAPAAANSSGDGGAAGDGTVVDCPVCKQQCFSKDIVE
B8: RNF32 RING domain (UniProt Q9H0A6); chain VQALRRETHECSICLAPLSAAGGQRVGAGRRSREMALLSCSHVFHHACLLALEEFSVGDRPPFHACPLCRSCYQKKILEC
B9: RNF17 RING domain (UniProt Q9BXT8); chain SQPWGAAEIQCTRCGRRVSRSSGHHCELQCGHAFCELCLLMTEECTTIICPDCEVATAVNTRQR
B10: MARCHF2 RING domain (UniProt Q9P0N8); chain RLLSTVIRALDTPSDGPFCRICHEGANGECLLSPCGCTGTLGAVHKSCLEKWLSSSNTSYCELCHTEFAVEKRPRPLTEWL
Residues (chain): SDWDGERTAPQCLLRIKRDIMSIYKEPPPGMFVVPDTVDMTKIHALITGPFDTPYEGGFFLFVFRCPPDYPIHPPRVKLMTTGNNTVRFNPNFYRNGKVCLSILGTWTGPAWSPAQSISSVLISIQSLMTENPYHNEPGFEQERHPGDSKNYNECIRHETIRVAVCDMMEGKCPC
Molecule | lacZ reporter activity
B1 (RNF115 RING domain) | 0
B2 (UBE4B RING domain) | 0
PLRRLQEEKLCKICMDRHIAVVFIPCGHLVTCKQCAEAVDRCPMCSAVIDFKQRVF (BIRC8 RING domain (UniProt Q96P09)) | 0
B3 (RFPL3 RING domain) | 0
AAQLLEEKLTCAICLGLYQDPVTLPCGHNFCGACIRDWWDRCGKACPECREPFPDGAELR (TRIM65 RING domain (UniProt Q6PJ69)) | 8290
B4 (SHPRH RING domain) | 0
B5 (RNF7 RING domain) | 0
B6 (ARIH1 RING domain) | 0
B7 (TRIM28 RING domain) | 0
B8 (RNF32 RING domain) | 0
B9 (RNF17 RING domain) | 0
B10 (MARCHF2 RING domain) | 0
EDVLSKDAGECAICLEELQQGDTIARLPCLCIYHKGCIDEWFEVNRSCPEHPSD (ZNRF2 RING domain (UniProt Q8NHG8)) | 0

Some of these lines once more (sample 1):
Modification | mean fluorescence intensity
2'F-ANA at 1 2 6 7 10 12 13 15 | 65.4 a.u.
2'F-ANA at 3 6 10 11 12 13 15 | 490 a.u.
2'F-ANA at 2 3 4 7 8 11 13 | 525 a.u.
